# Published values gathered from unrelated publications.
# Every numbered part comes from another study and shows a few of its results, in no order.

# Series 1
# Target: Interferon regulatory factor 5, full length, phosphomimetic (IRF5, Homo sapiens, UniProt Q13568-2, residues 1-514, K96S/S451D/S453D/S456D/S462D)
# Method: protein-binding microarray
# Form: double-stranded DNA, one strand shown
# Medium: in vitro
# Tested at: 250 nM
# Setting: 60-bp whole probe
# Together with: salmon DNA 0.4 mg/ml
# Reference: random background probes
# Direction: higher = stronger binding
# Shared flanks, not repeated: GCCTAGCAC … GTCTTGATTCGCTTGACGCTGCTG
Sequence,log fluorescence [z-score]
TTAGGTTTCGCCACTGGGTTAGTGCTA,3.98
TTAGGTATCGGACTGGGTTAGTGCTAG,1.62
TAGAAATTTTTTTTCTAACTGTGCTAG,0.604
GACGCTATCAGTTTCGAGACGTGCTAG,6.51
TCATATGTCCTGTCTACAACTGTGCTA,0.521
TTAGGTTTCGACGATCGGTTAGTGCTA,6.13
TCATTTCTCTGGTTCTTACTGTGCTAG,1.38
TCAATGGTCCTGGTTTCAACTGTGCTA,0.644
TTAGGACTGCTATTGCTTTAGTGCTAG,-0.0438
AGATGCCAAGAGGCATGATGGTGCTAG,-0.565
GACGATTACAGACTGGAGACGTGCTAG,-0.195
TTAGGGATCGGGACTGGGTTAGTGCTA,-0.224
TTAGGTTTCGGGTCTCGGTTAGTGCTA,8.1
TTAGGTCTCGGCTTCGGTTAGTGCTAG,0.345
TTAGAACTGAGTCTCGAATAGTGCTAG,0.0523
TTTTCTTTTCATTACTGCATGTGCTAG,3.29

# Series 2
# Target: RING finger protein unkempt homolog, zinc fingers 1-6, GST-SBP tag (UNK, Homo sapiens, UniProt Q9C0B0, residues 30-357)
# UniProt Q9C0B0, sequence (30-357, looked up): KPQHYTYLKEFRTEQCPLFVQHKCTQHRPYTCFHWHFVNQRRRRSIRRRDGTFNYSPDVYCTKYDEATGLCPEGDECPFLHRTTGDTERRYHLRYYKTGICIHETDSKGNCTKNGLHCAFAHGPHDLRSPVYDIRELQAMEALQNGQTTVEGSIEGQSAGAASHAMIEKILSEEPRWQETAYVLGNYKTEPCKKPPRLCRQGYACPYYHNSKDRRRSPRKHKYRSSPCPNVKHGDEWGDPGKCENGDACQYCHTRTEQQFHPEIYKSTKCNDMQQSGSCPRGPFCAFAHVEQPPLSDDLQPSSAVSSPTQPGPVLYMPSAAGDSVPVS
# Method: RNA Bind-n-Seq
# Form: RNA
# Medium: in vitro
# Tested at: not given
# Setting: RNA with constant flanks, human and mouse sites, ends assumed
# Reference: input RNA pool
# Direction: higher = stronger binding
Sequence,bound/input enrichment [ratio]
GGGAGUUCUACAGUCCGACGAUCCUCCACCCAAGAGGAAAAGAAAGAGAGUUAAACAGAGAAUUAAUACUUACGUAUUUGUGGGUAAUCAGCUUAUCCCUCAGCCUCUAGACAGUGAAGAGGAUGAAAAAAUGGAAGAAGACACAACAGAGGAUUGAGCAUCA,0.164
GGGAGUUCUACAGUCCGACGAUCUCCCUAAAGAUAAUUGGAAGACUUCAUUGGAUUGAUAGAGAGAAACUGCGUAAUUUCAUUUUAGCAUGUCAAGAUGAAGAAACGGGGGGAUUUGCAGACAGGCCAGGAGAUAUGGUGGAUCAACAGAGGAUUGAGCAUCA,0.702
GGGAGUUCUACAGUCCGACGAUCCCAAUCGGACUGCACAAGAAGCGGAUUGAACUGUCUGUUCUUUCAUACCAUUCCUCCUUUAGCAUCAGAAAGAGCCGGUUGGUUCAUGGGUACAUUGUUUUUUAUUCAGCCAAACGUAAGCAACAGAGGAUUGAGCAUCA,2.22
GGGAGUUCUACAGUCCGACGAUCUCUGUAGGAUGGCCAGCAUCCCGUGGUCCCUUUCAGCUGCUCAGUGCAUCCCUUGCAUCAUUAGUACCCUGUCUUGACAGCUUGAGGUCCUGGCAGUCUAUGUUUGCCCUUUGCUCAGGGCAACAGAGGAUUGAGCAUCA,0.185
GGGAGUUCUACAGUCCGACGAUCCAAAUACUAGAGAAUCUUUCCACUUCGCCUCUGGCUGAGCCACCCCACUUUGUUGAACAUAUUAGAUCUACCUUGAUGUUUUUAAAAAAACACCCAUCUCCAGCUCACACACUGUUUUCUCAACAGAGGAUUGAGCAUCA,2.09
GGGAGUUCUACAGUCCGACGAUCUUUCUGGGUUUUACAUAUGUGGCUCCAUCUGUACUUGAAAGUGUGAAAGAAAAGUUUUCCUUUGAACCAAAAAUCCGAUCACCUCGAAGAUUUAUUGGCAGCCCACGAACACCUGUCAGCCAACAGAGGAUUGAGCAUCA,0.212
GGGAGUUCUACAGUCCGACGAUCAGUCCAGACCCCCCCAGGUCCAAGCCCAGACCACGAUGCGCGCUCCAGGCUCCGGGCGGCUGGCUCUGCCGCUGCUGCUCCUCGCCGUGGUCGCCUUGGCUGAAGGCGACGCCAAGGGGCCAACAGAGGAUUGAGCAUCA,0.152
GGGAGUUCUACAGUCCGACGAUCACCUGGAACAAUGAGAUCUUGCCUAACUGGGAAACCAUGUGGUGCUCUAAGAAGGUUCGAGACUUGUGGUGGCAGGGAAUCCCUCCGAGUGUAAGAGGCAAAGUUUGGAGCUUGGCCAUUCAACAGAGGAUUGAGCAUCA,0.102
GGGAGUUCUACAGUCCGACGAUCGAAGUUCUGAUCAAGAUGGCAUCUCAGCCCUUCGGCCGAGGAGCAAUGAGGGAGUGCUUCCGGACGAAGAAGCUCUCCAACUUCUUGCAUGCCCAGCAGUGGAAGGGCGCCUCCAACUACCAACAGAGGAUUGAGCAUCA,0.107
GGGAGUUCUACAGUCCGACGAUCCUGUUUUGUGAAACAUGUCUACCCAGAAAAGUAGCAUUCUAUAAAUACUAUUAAACAACUUAGCUAUAUUAUUUUUAAGUAUUAAAUUAUAUGUCAAGCAGUUAAAGUGAAUUUCAGAGUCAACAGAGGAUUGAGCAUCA,5.06
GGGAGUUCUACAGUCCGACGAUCUCUGAGGAUACCACUGAAGAGACAUUAAAGGAGUCAUUUGACGGCUCCGUUCGGGCAAGGAUAGUUACUGACCGGGAAACUGGGUCCUCCAAAGGGUUUGGUUUUGUAGACUUCAACAGUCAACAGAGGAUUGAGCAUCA,0.247

# Series 3
# Target: Phosphate system positive regulatory protein PHO4, full length, GST-tagged (PHO4, Saccharomyces cerevisiae, UniProt P07270, residues 1-312)
# Method: competition protein-binding microarray
# Form: double-stranded DNA, one strand shown
# Medium: in vitro
# Tested at: 2 µM
# Setting: whole 60-bp probe, lowest competitor level
# Together with: Cbf1 competitor, 0.05 µM
# Direction: higher = stronger binding
# Target sequence (chain): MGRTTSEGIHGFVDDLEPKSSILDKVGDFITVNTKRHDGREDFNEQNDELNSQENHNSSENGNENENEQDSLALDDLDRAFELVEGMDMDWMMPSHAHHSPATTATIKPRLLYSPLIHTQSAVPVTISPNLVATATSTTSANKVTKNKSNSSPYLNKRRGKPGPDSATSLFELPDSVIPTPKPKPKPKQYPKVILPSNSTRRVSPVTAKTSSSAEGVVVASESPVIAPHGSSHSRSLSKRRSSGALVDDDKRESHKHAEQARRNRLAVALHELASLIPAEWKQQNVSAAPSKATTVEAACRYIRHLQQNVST
Sequence,fluorescence intensity
TTATACCACCATTGCCACGTTCACCAAACAATATGTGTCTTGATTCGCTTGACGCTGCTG,13400 a.u.
GGTAAAAAGCACAGGCATGTGAATTGCACAGCAGTGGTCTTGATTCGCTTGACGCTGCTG,7400 a.u.
GCTGTTGAGTTTGCGGACGTGTCGGAGAGCGCGTAGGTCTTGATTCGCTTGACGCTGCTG,4810 a.u.
CAGCCCAGGTCCAATGTCGTGCAAAACGCAGATCCTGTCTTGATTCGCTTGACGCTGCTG,6980 a.u.
ACTTACTACAAGCTCAACGTGACTCGTTTGGTGTTCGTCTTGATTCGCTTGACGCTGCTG,11500 a.u.
TACAGAGGAGATAAAGGCGTGCCAGCAATTGAAGAGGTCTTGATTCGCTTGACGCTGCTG,9210 a.u.
CCGGATAATCTACATCATGTGGTACGTTAACGATGTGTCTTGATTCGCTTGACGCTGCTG,8980 a.u.
AAAGCAGCTTCGGGGTGCGTGATGGAAAAATGCGACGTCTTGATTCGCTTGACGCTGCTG,7140 a.u.
CGTCCTAGAGATTACCACGTGTTTTCCATGAGGAAGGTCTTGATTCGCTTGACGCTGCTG,15900 a.u.
CGGGGTTAAGTTTGTCACTTCACTTGCTTGCAGCAGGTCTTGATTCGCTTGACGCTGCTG,3510 a.u.
CATACCCAACCTTGTTCAGTGGGTGAAGATATTTGTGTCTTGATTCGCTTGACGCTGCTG,3340 a.u.
CAAAGAAAATGCTCCCTCGTGGCCGTCCATCCAGGCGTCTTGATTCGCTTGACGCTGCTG,11100 a.u.
CTCCTGGCTGCCTGCCTCGTGGTGGTCAATTCGCTGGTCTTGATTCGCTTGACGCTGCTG,11100 a.u.
CAGATGGTTCTCCATCACGTCTCTGATTATGCCTATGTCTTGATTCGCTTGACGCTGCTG,4630 a.u.

# Series 4
# Target: Histone acetyltransferase KAT6A, both winged helices, GST fusion (KAT6A, Homo sapiens, UniProt Q92794, residues 1-181)
# Method: protein binding microarray
# Form: double-stranded DNA, one strand shown
# Medium: in vitro
# Tested at: not given
# Setting: 8-mer, flanks averaged, mean of 2 arrays, mostly near background
# Reference: not given
# Direction: higher = stronger binding
# Residues (chain): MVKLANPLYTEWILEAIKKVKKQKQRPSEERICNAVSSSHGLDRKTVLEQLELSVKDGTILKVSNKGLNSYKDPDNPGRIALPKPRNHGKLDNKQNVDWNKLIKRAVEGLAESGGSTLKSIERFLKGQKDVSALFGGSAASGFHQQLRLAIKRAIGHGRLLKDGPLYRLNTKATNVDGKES
Sequence,E-score
GAGCGGAC,0.217
ACTTGAAT,-0.155
AGTATCGA,0.107
CGGCTGGA,0.137
TAACACCA,-0.149
AATAGGAG,-0.0873
AACTCCGC,0.096
GATTCAGA,-0.152
CATATCTA,0.0208
CCCGAAGC,0.0254
AAGATGCC,-0.0737
CAAGCGAA,-0.0729
CTGCGAAG,-0.0634
TTATCAAA,-0.00402
ACAACCCC,-0.0367
AACTTGCC,-0.108
CTCTGCCA,-0.138
ACAGGCTC,-0.0969
ACGCGAGT,0.223
CGTGCGGA,0.179
CTTTAGGA,-0.159
AACGCTTA,0.079
GTATACAA,0.0184
GGCGACCC,0.0809
ACTTACAG,-0.136

# Series 5
# Target: Sal-like protein 4, full length isoform B (SALL4, Homo sapiens, UniProt Q9UJQ4-2, residues 1-616)
# Method: universal PBM
# Form: double-stranded DNA, one strand shown
# Medium: in vitro
# Tested at: not given
# Setting: 8-mer, flanks averaged, mean of replicates
# Direction: higher = stronger binding
# Construct (chain): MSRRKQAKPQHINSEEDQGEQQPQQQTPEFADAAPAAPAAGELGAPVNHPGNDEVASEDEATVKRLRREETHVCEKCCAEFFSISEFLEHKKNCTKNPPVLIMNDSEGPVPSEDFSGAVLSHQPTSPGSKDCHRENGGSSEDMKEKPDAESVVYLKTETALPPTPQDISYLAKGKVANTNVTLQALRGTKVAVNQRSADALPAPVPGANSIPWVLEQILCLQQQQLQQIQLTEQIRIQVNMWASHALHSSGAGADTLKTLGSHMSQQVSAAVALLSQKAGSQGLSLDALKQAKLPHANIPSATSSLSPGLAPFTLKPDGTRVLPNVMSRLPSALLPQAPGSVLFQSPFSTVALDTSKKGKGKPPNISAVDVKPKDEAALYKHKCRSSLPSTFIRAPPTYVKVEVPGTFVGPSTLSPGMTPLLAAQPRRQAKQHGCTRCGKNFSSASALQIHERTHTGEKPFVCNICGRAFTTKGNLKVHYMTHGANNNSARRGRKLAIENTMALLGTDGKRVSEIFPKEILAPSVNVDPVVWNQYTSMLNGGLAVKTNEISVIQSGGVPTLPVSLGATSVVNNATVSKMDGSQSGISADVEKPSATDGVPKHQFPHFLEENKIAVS
Sequence,E-score
ACGCCTTG,-0.0692
ATCCTATG,0.0769
AAGATGGT,0.0773
GATGGTAA,0.137
ACTCAGAT,-0.0126
AGAGCGGA,-0.0442
CTCAGAAG,-0.19
GTCACCTA,-0.0803
CTTTCCCC,-0.11
TAGACCCA,-0.0745
CATTAGAG,-0.00817
GACTCGCA,-0.0633
ATAAAGGC,0.118
CTCGTTCC,-0.183
ATATCAAC,0.236
GCTAGAAA,0.0586
GACTGCTC,-0.359
ATTAATTA,0.401
GGACTTGA,-0.148
ATGGTCGC,-0.137
AAAGGAAA,0.282
AAAAATAA,0.405
GCTCAATA,0.0391
CCTAGTTC,-0.0997
ACTAACAC,0.0919

# For quick reference, copied from above (series 4):
Sequence,E-score
GAGCGGAC,0.217
ACTTGAAT,-0.155
AGTATCGA,0.107
CGGCTGGA,0.137
TAACACCA,-0.149
AATAGGAG,-0.0873
AACTCCGC,0.096
GATTCAGA,-0.152
CATATCTA,0.0208
CCCGAAGC,0.0254
AAGATGCC,-0.0737
